Published values of several laboratories.
± gives the spread as reported.

`CO[C@H]1C[C@@H]2CC[C@@H](C)[C@@](O)(O2)C(=O)C(=O)N2CCCC[C@H]2C(=O)O[C@H]([C@H](C)C[C@@H]2CC[C@@H](OC(=O)NCCOCCOCCOCCOCCOCCOCCOCCOCCC(=O)N3CCc4cc(Cn5nc(-c6ccc7oc(N)nc7c6)c6c(N)ncnc65)ccc4C3)[C@H](OC)C2)C[C@@H](O)[C@H](C)/C=C(\C)[C@@H](O)[C@@H](OC)C(=O)[C@H](C)C[C@H](C)/C=C/C=C/C=C/1C`: “incidence of SAE” 33.3% (advanced solid tumour patients; intravenous, dose not given, any grade, all doses).
Under “platelet count decreased AE incidence”, `N[C@@H]1c2ccccc2OC12CCN(c1cnc3c(N4CCCc5ncccc54)n[nH]c3n1)CC2` is recorded as 21% (phase Ia; patients advanced metastatic solid tumours; oral, dose not given, all doses, any relationship).
`O=C1Nc2cc3[nH]nc(-c4ccncc4)c3cc2CN1Cc1ccccc1` — result for “patients with acneiform dermatitis”: 40% (CTCAE v4.03; advanced solid tumour patients; intravenous, 7.2 mg/kg, schedules 1/2).
For `O=S(=O)(Nc1ccccc1)c1ccc(NC(=S)Nc2ccccc2)cc1`, “blood chemistry level” read 0.15 mg/dL (refers to: Bu; male mouse, blood; oral, 5 mg/kg daily, 14 days).
Under “participants with adverse event”, `COc1ccc(C[C@@H]2NC(=O)[C@H]([C@@H](C)O)NC(=O)[C@@H]3[C@@H]4CCN3C(=O)[C@@H]3Cc5cn(c6ccc(F)cc56)CCCCCCN(Cc5ccc(cc5)CCNC(=O)[C@]5(C)CCCN5C2=O)C(=O)CCC(=O)N[C@@H](C)C(=O)N[C@H](CNC(=O)CCCCC[N+](C)(C)C)C(=O)N[C@@H](Cc2cccc(c2)CNC(=O)CO4)C(=O)N3)cc1` is recorded as 3.2% (refers to: Hunger; humans; concentration not given, Study-003).
For `CN[C@H]1CC[C@@H](c2ccc(Cl)c(Cl)c2)c2ccccc21`, “elimination rate constant” read 0.000112 s⁻¹ (CD-1 mouse, male, plasma; intraperitoneal, 10 mg/kg).
`O=C(O)CCC(CP(=O)(O)O)C(=O)O` (stereo not shown) has a measured concentration of 3.89 ± 0.19 µg/mL (rat plasma; 4 µg/mL, freeze-thaw cycle 3 at -80 °C).
`Clc1cc(Cl)c(-c2c(Cl)c(Cl)cc(Cl)c2Cl)cc1Cl` gave a log K(PDMS-water) of 6.65 ± 0.07 (fresh water; 20 °C, SSP sampler, 100 µm).
For `COc1ccnc(C(=O)N[C@H]2COC(=O)[C@H](Cc3ccccc3)[C@@H](OC(=O)C(C)C)[C@H](C)OC2=O)c1OCOC(=O)C(C)C`, the LC50 was over 0.53 µg/mL (rat; inhalation, nose only, 4 h, highest attainable concentration).
The creatinine of `CC(C)C[C@H](NC(=O)[C@H](CCCCN)NC(=O)OCC1c2ccccc2-c2ccccc21)C(=O)N[C@H](C(=O)N[C@@H](Cc1ccccc1)C(=O)N[C@@H](Cc1ccccc1)C(=O)N[C@@H](CCCCN)C(=O)NCC(=O)N[C@@H](Cc1ccccc1)C(=O)N[C@@H](C)C(=O)N[C@@H](Cc1c[nH]c2ccccc12)C(=O)N[C@@H](CC(N)=O)C(=O)N[C@H](C(=O)N[C@H]1CSSC[C@@H](C(=O)N[C@@H](Cc2c[nH]cn2)C(=O)N[C@@H](CCCNC(=N)N)C(=O)N[C@@H](CCCNC(=N)N)C(=O)N[C@@H](C)C(=O)N[C@@H](CC(N)=O)C(N)=O)NC(=O)[C@H](C(C)C)NC(=O)[C@H](CCCNC(=N)N)NC(=O)[C@H](C(C)C)NC(=O)CNC(=O)[C@H](CC(N)=O)NC(=O)[C@H](CCCNC(=N)N)NC(=O)[C@H](Cc2ccc(O)cc2)NC(=O)[C@H](C(C)C)NC1=O)C(C)C)C(C)C` is reported as 82.9 ± 3.1 µmol/L (ICR mice, serum; intraperitoneal, 10 mg/kg, day 5).
`COc1cc2c(Oc3ccc4[nH]c(C)cc4c3F)ccnc2cc1OCC1(N)CC1`: “blurred vision incidence” 0% (paediatric refractory sarcoma patients; 10 mg).
Under “body weight gain”, `CCOc1cc(Oc2ccc(C(F)(F)F)cc2Cl)ccc1[N+](=O)[O-]` is recorded as 25.7% (rat, female; 125 mg/kg, 4 days).
For `C=CC(=O)Nc1cc(Nc2nccc(Nc3cc(Cl)c(F)cc3C(C)(C)O)n2)c(OC)cc1N1CC[C@@H](N(C)C)C1`, “patients with nausea” read 40% (human patients; oral, 400 mg, treatment-emergent adverse events).
`COc1cccc(-c2ccnc(Nc3ccc(N4CCN(C)CC4)c(C(F)(F)F)c3)n2)c1` has a toxicity of 0% (zebrafish embryos; 50 µM, 5 d).
For `CN(C(=O)n1cnc(-c2ccc[n+]([O-])c2)c1)C1CCCCC1`, the concentration was 73.9 ± 29.9 ng/g (Wistar rat, cerebral cortex; oral, 10 mg/kg/day, 4 h, repeated 5 days).
For `NCCCC[C@@H]1NC(=O)[C@@H](Cc2c[nH]c3ccccc23)NC(=O)[C@H](c2ccccc2)NC(=O)[C@@H]2C[C@@H](OC(=O)NCCN)CN2C(=O)[C@H](Cc2ccccc2)NC(=O)[C@H](Cc2ccc(OCc3ccccc3)cc2)NC1=O`, “QTcI change from baseline” read 11.4 ms (healthy volunteers; subcutaneous, 1950 µg twice daily, day 5, 3.00 h).
`CCc1ccc(CC/C=C/c2ccc3c(c2)C(=O)CC3)cc1` gave an Erythrocyte percentage of 11% (Sprague-Dawley rat, female; oral, 30 mg/kg/day, 14 days).
`COc1cccc2c1CCCC2CCCN1CCN(C2CCCCC2)CC1` (stereo not shown): “elimination rate constant” 5.78e-05 s⁻¹ (CD-1 mouse, male, plasma; intraperitoneal, 1 mg/kg).
For `C[C@]1(O)C[C@@](N)(c2ccc(-c3nc4n(c3-c3ccccc3)COc3ccncc3-4)cc2)C1`, “patients with Nausea TEAE” read 100% (human, advanced or metastatic solid tumours; 16 mg once daily, dose-response cohort).
For `Clc1ccc(-c2ccc(Cl)c(Cl)c2)c(Cl)c1`, “literature range factor” read 1.5 (polyethylene-water partitioning; PCB compilation; relative to: maximum over minimum K).
`Cc1ccccc1C(=O)NN=Cc1ccc(O)c(Br)c1` has an AUC(0-t) of 325 ng·h/mL (C3H/HeN mouse IN model, plasma; intravenous, 1.6 mg/kg).
With `Clc1ccc(-c2cc(Cl)c(Cl)c(Cl)c2Cl)cc1Cl` the log K(PDMS-water) was 6.41 ± 0.07 (fresh water; 20 °C).
`CC[C@H](C)[C@H](NC(=O)[C@H](Cc1ccccc1)NC(=O)[C@H](CCC(=O)O)NC(=O)[C@H](CCCNC(=N)N)NC(=O)[C@H](C)NC(=O)[C@H](C)NC(=O)[C@H](CCC(N)=O)NC(=O)[C@H](CCC(=O)O)NC(=O)[C@H](CCC(=O)O)NC(=O)[C@H](CC(C)C)NC(=O)[C@H](Cc1ccc(O)cc1)NC(=O)[C@H](CO)NC(=O)[C@H](CO)NC(=O)[C@@H](NC(=O)[C@H](CC(=O)O)NC(=O)[C@H](CO)NC(=O)[C@@H](NC(=O)[C@H](Cc1ccccc1)NC(=O)[C@@H](NC(=O)CNC(=O)[C@H](CCC(=O)O)NC(=O)[C@H](C)NC(=O)CCc1cnc[nH]1)[C@@H](C)O)[C@@H](C)O)C(C)C)C(=O)N[C@@H](C)C(=O)N[C@@H](Cc1c[nH]c2ccccc12)C(=O)N[C@@H](CC(C)C)C(=O)N[C@H](C(=O)N[C@@H](CCCNC(=N)N)C(=O)NCC(=O)N[C@@H](CCCNC(=N)N)C(=O)N[C@@H](CCCCNC(=O)COCCOCCNC(=O)COCCOCCNC(=O)CC[C@H](NC(=O)CCCCCCCCCCCCCCCCC(=O)O)C(=O)O)C(=O)NCC(=O)NCC(=O)N[C@@H](CO)C(=O)N[C@@H](CCCCNC(=O)[C@H](CCCCNC(=O)[C@H](CCCCNc1c(NCCCCCN(O)C(=O)CCC(=O)NCCCCCN(O)C(=O)CCC(=O)NCCCCCN(O)C(C)=O)c(=O)c1=O)Nc1c(NCCCCCN(O)C(=O)CCC(=O)NCCCCCN(O)C(=O)CCC(=O)NCCCCCN(O)C(C)=O)c(=O)c1=O)NC(=O)[C@H](CCCCNc1c(NCCCCCN(O)C(=O)CCC(=O)NCCCCCN(O)C(=O)CCC(=O)NCCCCCN(O)C(C)=O)c(=O)c1=O)Nc1c(NCCCCCN(O)C(=O)CCC(=O)NCCCCCN(O)C(=O)CCC(=O)NCCCCCN(O)C(C)=O)c(=O)c1=O)C(=O)O)C(C)C` [zirconium-89 labelled] has a tissue uptake of 0.595 %ID/g (ex vivo gamma counting; male Sprague-Dawley rat, stomach-duodenum; intravenous, 1 nmol, 24 h).
Under “decreased white blood cell”, `C[C@@H](NC(=O)N1C(=O)[C@H](Cc2ccnc(N)c2)[C@H]1C(=O)O)C1CCCCC1` is recorded as 10% (healthy Chinese adult volunteers; continuous intravenous infusion, dose not given, 5.0 days, CTCAE 5.0, all doses).
`CC(C)C[C@@H]1NC(=O)CNC(=O)[C@H](CC(N)=O)NC(=O)[C@H](CCCNC(=N)N)NC(=O)[C@H]([C@@H](C)O)NC(=O)[C@@H]2CSSC[C@@H]3NC(=O)[C@H]([C@@H](C)O)NC(=O)CNC(=O)[C@H](CCCCN)NC(=O)[C@H](C(C)C)NC(=O)[C@@H]4CSSC[C@H](NC(=O)[C@H]([C@@H](C)O)NC(=O)[C@H](CSSC[C@H](NC(=O)[C@H](C(C)C)NC(=O)[C@@H]5CCCN5C1=O)C(=O)NCC(=O)N[C@@H](CCC(=O)O)C(=O)N[C@@H]([C@@H](C)O)C(=O)N4)NC(=O)CNC(=O)[C@@H]1CCCN1C(=O)[C@H]([C@@H](C)O)NC(=O)[C@H](CC(N)=O)NC3=O)C(=O)N[C@@H](CO)C(=O)N[C@@H](Cc1c[nH]c3ccccc13)C(=O)N1CCC[C@H]1C(=O)N[C@@H](C(C)C)C(=O)N2` has a remaining peptide of 63.6 ± 4.9% (HPLC; ammonium bicarbonate 0.1 M; 180 µM, 14 days, pH 9.0, 37 °C, deamidation stability).
Under “recovery in urine and faeces”, `CC(C)CC(=O)OC[C@H]1O[C@@](C#N)(c2ccc3c(N)ncnn23)[C@H](O)[C@@H]1O` is recorded as 0.0518% (Sprague-Dawley rat, female, urine and faeces; 80 mg/kg, time not given; relative to: dose).
`Cc1cn([C@H]2O[C@@H](CO[P@@](=O)(N[C@@H](C)C(=O)OC(C)C)Oc3ccccc3)[C@H](O)[C@H]2F)c(=O)[nH]c1=O` — result for “patients with TEAE”: 0% (refers to: Inflammation; human; 50 mg).
For `NC(=O)[C@H]1CCN(c2ncnc(N)c2F)C[C@@H]1N1CCC[C@@H](Nc2cc(Cl)cc(C(F)(F)F)c2)C1=O`, “grade ≥3 neutropenia” read 30% (B-cell malignancy patients; oral, 41 mg twice daily, dose).
